{"data": "Values quoted from earlier work as cited in several papers", "note": "± marks the error that the study gave.", "UniProt P05177, sequence (whole entry, looked up)": "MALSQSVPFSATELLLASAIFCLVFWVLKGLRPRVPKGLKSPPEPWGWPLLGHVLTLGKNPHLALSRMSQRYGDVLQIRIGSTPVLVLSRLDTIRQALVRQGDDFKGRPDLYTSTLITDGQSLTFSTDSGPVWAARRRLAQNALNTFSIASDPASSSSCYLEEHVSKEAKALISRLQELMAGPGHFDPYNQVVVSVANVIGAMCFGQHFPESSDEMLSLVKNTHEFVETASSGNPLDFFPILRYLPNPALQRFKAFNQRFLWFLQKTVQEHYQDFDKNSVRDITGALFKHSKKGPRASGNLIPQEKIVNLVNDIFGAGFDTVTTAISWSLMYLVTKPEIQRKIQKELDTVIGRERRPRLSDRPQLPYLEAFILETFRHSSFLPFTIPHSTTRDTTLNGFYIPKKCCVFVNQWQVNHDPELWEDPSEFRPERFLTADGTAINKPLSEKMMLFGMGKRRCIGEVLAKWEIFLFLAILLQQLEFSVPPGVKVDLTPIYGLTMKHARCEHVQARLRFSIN", "UniProt P33261, sequence (whole entry, looked up)": "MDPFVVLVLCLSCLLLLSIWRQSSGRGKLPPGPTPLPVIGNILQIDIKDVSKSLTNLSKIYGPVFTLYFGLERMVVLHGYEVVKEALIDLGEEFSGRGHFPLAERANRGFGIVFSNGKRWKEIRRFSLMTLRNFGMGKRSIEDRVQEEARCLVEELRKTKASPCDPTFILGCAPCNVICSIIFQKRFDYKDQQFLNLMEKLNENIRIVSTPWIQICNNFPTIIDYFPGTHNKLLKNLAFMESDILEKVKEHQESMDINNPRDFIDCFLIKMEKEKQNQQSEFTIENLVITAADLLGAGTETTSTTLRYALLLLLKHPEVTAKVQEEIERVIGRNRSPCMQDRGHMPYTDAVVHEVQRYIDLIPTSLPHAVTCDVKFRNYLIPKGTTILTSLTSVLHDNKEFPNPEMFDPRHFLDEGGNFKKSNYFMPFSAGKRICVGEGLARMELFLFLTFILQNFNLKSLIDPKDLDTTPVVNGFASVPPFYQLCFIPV"}
{"Structure (SMILES)": "CC(C)C1=C(O)C(=O)C2=C(C1=O)[C@H](OC=O)[C@@H](O)[C@H]1C(C)(C)CCC[C@]21C", "tested on": "HCT-116", "endpoint": "GI50", "result": "5 to 10 µM"}
{"Structure (SMILES)": "Cc1ccccc1-c1cc(N2CC[N+](C)([O-])CC2)ncc1N(C)C(=O)C(C)(C)c1cc(C(F)(F)F)cc(C(F)(F)F)c1", "system": "healthy volunteers, plasma", "conditions": "oral, dose not given, netupitant-palonosetron, fed", "endpoint": "Tmax", "result": "5.57 h"}
{"Structure (SMILES)": "CC(=O)N1CCC(NC(=O)NC23CC4CC(C)(CC(C2)c2ccccc24)C3)CC1", "tested on": "CYP2C19 (Homo sapiens, UniProt P33261)", "conditions": "10 µM", "endpoint": "inhibition", "result": "19 ± 5%"}
{"Structure (SMILES)": "Cc1ccccc1-c1cc(N2CCNCC2)ncc1N(C)C(=O)C(C)(C)c1cc(C(F)(F)F)cc(C(F)(F)F)c1", "system": "healthy volunteers, plasma", "conditions": "oral, dose not given, netupitant-palonosetron, fed", "endpoint": "Cmax", "result": "46.8 ng/mL"}
{"Structure (SMILES)": "CC(=O)O[C@H]1C2=C(C(=O)C(OC(=O)c3ccc(Cl)cc3)=C(C(C)C)C2=O)[C@@]2(C)CCCC(C)(C)[C@@H]2[C@@H]1O", "tested on": "MEL1", "endpoint": "GI50", "result": "≤ 5 µM"}
{"Structure (SMILES)": "O=C1c2ccccc2-c2c1c1ccc([N+](=O)[O-])cc1c(=O)n2C[C@H](O)[C@@H](O)[C@H](O)[C@H](O)CO", "tested on": "HOP-62", "assay": "cell growth", "system": "lung cancer", "endpoint": "GI50", "result": "7.35 µM"}
{"Structure (SMILES)": "CCCCc1oc2ccccc2c1C(=O)c1cc(I)c(OCCNCC)c(I)c1", "tested on": "human CYP2C9", "assay": "mechanism-based inactivation", "conditions": "added: diclofenac 4'-hydroxylation", "endpoint": "KI", "result": "~100 µM"}
{"Structure (SMILES)": "COc1ccc(Nc2nccc(-c3c[nH]nc3-c3cccnc3)n2)cc1", "tested on": "Cytochrome P450 1A2 (CYP1A2, Homo sapiens, UniProt P05177)", "conditions": "10 µM", "endpoint": "inhibition", "result": "84%"}
{"Structure (SMILES)": "COCCOCCOCCOCCC(=O)NCc1cc(CNC(=O)CCOCCOCCOCCOC)cc(-c2cc3cc4nc(c(OC)c5[nH]c(cc6nc(cc2[nH]3)CC6(C)C)cc5-c2cc(CNC(=O)CCOCCOCCOCCOC)cc(CNC(=O)CCOCCOCCOCCOC)c2)CC4(C)C)c1", "system": "PBS", "conditions": "room temperature", "endpoint": "kic^−1", "result": "6 ns"}
{"Structure (SMILES)": "CC(=O)O[C@H]1C2=C(C(=O)C(O)=C(C(C)C)C2=O)[C@@]2(C)CCCC(C)(C)[C@@H]2[C@@H]1O", "tested on": "MEL1", "endpoint": "GI50", "result": "10 to 30 µM"}
{"Structure (SMILES)": "O=C1c2ccccc2-c2c1c1ccc([N+](=O)[O-])cc1c(=O)n2C[C@H](O)CO", "tested on": "DU-145", "assay": "cell growth", "system": "prostate cancer", "endpoint": "GI50", "result": "0.04 µM"}
{"Structure (SMILES)": "CC(=O)O[C@H]1C2=C(C(=O)C(O)=C(C(C)C)C2=O)[C@@]2(C)CCCC(C)(C)[C@@H]2[C@@H]1OC(=O)c1ccc([N+](=O)[O-])cc1", "tested on": "MEL1", "endpoint": "GI50", "result": "5 to 10 µM"}
{"Structure (SMILES)": "CN1CCN(c2cc(-c3ccccc3CO)c(N(C)C(=O)C(C)(C)c3cc(C(F)(F)F)cc(C(F)(F)F)c3)cn2)CC1", "system": "healthy volunteers, plasma", "conditions": "oral, dose not given, netupitant-palonosetron, fasted", "endpoint": "Cmax", "result": "81.8 ng/mL"}
{"Structure (SMILES)": "CC(=O)O[C@@H]1[C@@H](OC(C)=O)C2=C(C(=O)C(O)=C(C(C)C)C2=O)[C@@]2(C)CCCC(C)(C)[C@H]12", "tested on": "HL-60", "assay": "cell growth", "endpoint": "GI50", "result": "10 to 30 µM"}
{"Structure (SMILES)": "C=C[C@@H]1C[C@]1(NC(=O)[C@@H]1C[C@@H](Oc2cc(-c3ccccc3)nc3cc(OC)ccc23)CN1C(=O)[C@@H](NC(=O)OC(C)(C)C)C(C)(C)C)C(=O)NS(=O)(=O)C1CC1", "system": "dog", "conditions": "oral, 3 mg/kg", "endpoint": "oral bioavailability", "result": "20%"}
